Measured values pooled from the literature.
Each numbered part is a random draw from the data of one study; scales do not carry over between parts.

Block 1
Target: RING finger protein unkempt homolog, zinc fingers 1-6, GST-SBP tag (UNK, Homo sapiens, UniProt Q9C0B0, residues 30-357)
Chain of UniProt Q9C0B0 (30-357, looked up): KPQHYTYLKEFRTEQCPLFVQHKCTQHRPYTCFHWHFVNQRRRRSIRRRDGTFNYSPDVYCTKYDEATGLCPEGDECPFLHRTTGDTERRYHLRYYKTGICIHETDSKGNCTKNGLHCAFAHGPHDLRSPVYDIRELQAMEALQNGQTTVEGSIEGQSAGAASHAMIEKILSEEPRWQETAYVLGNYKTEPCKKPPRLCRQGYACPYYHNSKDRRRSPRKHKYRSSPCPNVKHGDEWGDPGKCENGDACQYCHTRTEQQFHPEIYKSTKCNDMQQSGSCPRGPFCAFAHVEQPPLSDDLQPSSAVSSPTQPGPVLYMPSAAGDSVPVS
Technique: RNA Bind-n-Seq
Molecule type: RNA
Sample: in vitro
Concentration: not given
Notes: RNA with constant flanks, human and mouse sites, ends assumed
Reference: input RNA pool
Direction: higher = stronger binding
Constant ends, left off below: GGGAGUUCUACAGUCCGACGAUC … CAACAGAGGAUUGAGCAUCA
Sequence	bound/input enrichment [ratio]
ACACAACACAAACAUAAGGAGAGACUUAGUGCUUCACCUCAGGAGGUAGGAAAGCCAUAUUUAGAGUCUUUUCAGCCCAAUUUACAUAUUACAAAAGAUGCUGCAUCUAAUGAAAUUCCA	1.14
AUCAGAGCUGAAGCCUCCGGGUGGGUUUUUAAUCCCUUCCUCUUCCUUUCAUCUACCUGUCCUCUCAGCUCCAGCCAGACAGCAUGGAACCACAGGUUACUCUAAAUGUGACUUUUAAAA	0.234
CCAGAUAACCCGGGUUCUAUUCACAGGGCCCAGUUCCAAGGGCACUGCACACAGUGAUGCAUAGAUGUAUGCAGGCAAAACACCCAUUCACAUAAAAUAAAAUGAUCUUUAAAAAAUACU	0.556
GUCCAAGCACAGUGUGACUGCUGUUUUUUAUACUGGCAUCGCGCUGUCUUCCCGAUUUAUUUAGAUGAUGUAUAUGAAAAUGCUGUCGAUGCAGCCAGAUUACAUUACAUGUUCAGUGCU	1.2
UAACCACAGCAGAGGGCAGAUGCUUGAUAGAUUAUCUUUUCCUUGCUUUCUUGUUUCUGUUUUGAAAGUGAAAUGGGGUUUUAAAUUGUUAUUUAAACUCUUUUUCCAAAUAAAGGUUUA	0.349
CAUGCACACAAGUCCCCCUACUGCUGCCCGGAGUGCGGUGUCCUCUGUCGCUCUGCUUACUUCCAGACUCACGUAAAGGAGAAUUGCCUGCACUAUGCCCGAAAAGUGGGCUACAGGUGC	0.383
AUUCUUGUCAUAGAUCCAAAUAAUGCUGCAGUACUCCAGUCCAGUGGAAAAAAUCUGUUUUACUUGCCACAUGGCUUGAGUAUAGAUAAAGAUGGGAAUUAUUGGGUCACAGACGUGGCU	0.237
CUGACCCAUAAUAAUGGAAAGUUUAACAGUGACUCACAUUCUCCUAAAGUUUCCAGCCAGAAUAGGACACGCUUAUUUGGUCAUUUUCCCGGGCCAGAGUUCUUGGACAUAGAGAAAACU	0.464
GUCUUCCAUCAUAAAUUUAACUUCAUUAGAUACCUGAGAAUUAAUAUUGAAAAUACACCAUAUGAAUUUAGUGAAUGUGGGAAAGCUUUCAUCCUUAUUACAUCUUAUUUGAUACUAGGG	5.86
CUUCUAAGUCGUGUCACUCUUCUAGAAACGGAGAUGCUGUUGUCCAAAAAGAGUGAAUCUGUAGAGCGUAAUGUGGCAAGUCAAGACUGUGAGUCAAUUAGUGAUGUGGACUUUGUACCC	1.16
UCUCCUGAAGAACAUCUAGAAGAAAUGAUGAAGAUGAUGUCGCCCAAUAAGCUGCACACUAACUUUCACAUUCCUAAAAAAGGCCCACCUGCCAAGAAACCAGGGAAGCACAGUGACAAG	0.265

Block 2
Target: Ras GTPase-activating protein-binding protein 1, full length (G3BP1, Homo sapiens, UniProt Q13283)
Chain of UniProt Q13283 (whole entry, looked up): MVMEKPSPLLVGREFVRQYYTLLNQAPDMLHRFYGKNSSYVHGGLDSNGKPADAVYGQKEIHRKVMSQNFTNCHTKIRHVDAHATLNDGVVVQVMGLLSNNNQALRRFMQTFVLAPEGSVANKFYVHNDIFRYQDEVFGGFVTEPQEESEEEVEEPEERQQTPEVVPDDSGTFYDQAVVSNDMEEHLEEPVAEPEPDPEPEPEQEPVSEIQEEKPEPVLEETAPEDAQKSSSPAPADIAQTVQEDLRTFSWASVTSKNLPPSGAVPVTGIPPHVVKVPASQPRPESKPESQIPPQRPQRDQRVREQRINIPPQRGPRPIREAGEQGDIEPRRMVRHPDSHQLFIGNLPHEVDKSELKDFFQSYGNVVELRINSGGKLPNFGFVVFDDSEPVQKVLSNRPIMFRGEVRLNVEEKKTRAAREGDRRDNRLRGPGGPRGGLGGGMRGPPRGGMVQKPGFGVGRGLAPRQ
Technique: RNA Bind-n-Seq
Molecule type: RNA
Sample: in vitro
Concentration: 200 nM
Notes: whole 134-nt RNA, ends assumed
Added: 150 mM LiCl
Reference: input library
Direction: higher = stronger binding
Each molecule: 7-deaza-guanosine replaces G
Constant ends, left off below: GGGAGUUCUACAGUCCGACGAUC … UGGAAUUCUCGGGUGUCAAGG
Sequence	log2 enrichment
UAACUUUAGAGGAGGAUCUGAUGAAUAUGGCAGUGGACGUGGAUUUGGGGAUGGCUAUAAUGGGUAUGGAGGAGGACCUGGAGGUGGCAA	-0.352
UGGCCCUGGUGGCAUGCGGGGAGGAAGAGGUGGCCUCCUGGAUCGUGGUGGUCCCGGUGGAAUGUUCAGAGGUGGCCGUGGUGGAGACAG	0.172
UCCUGUGCUACACAUCGUAUGUACCGAAUCGGGGUUUGGGGUUUUUGGGGUUUUUGGGGAAAGUAUUAUGUUACGCCGUUCGGAUCUGCA	0.0467
UGGCCCUGGUAGCAUGCGGGGAGGAAGAGGUGGCCUCAUGGAUCGUGGUGGUCCCGGUGGAAUGUUCAGAGGUGGCCGUGGUGGAGACAG	0.0695
UGGGAGGUGGAUUUUGUUUAUUUUUUUAGCUCAUUUCCAGGGGUGGGAAUAUUUUUUUAAUAUGUGUCAUGAAUAAAGUUGUUUUUGAAA	-0.147
CACAGACAACACGCACCCACACAGACACAGAGGGAAGGGGUUGGGAUGGGGACAGGGUGCACAGCAGGUCGGGGUAGGACCCCAGCCCCU	-0.735
UGGGAGGUGGAUUUUGUUUAUUUUUUUAGCUCAUUUCCAGGGGUGGGAAUUUUUUUUUAAUAUGUGUCAUGAAUAAAGUGGUUUUUGAAA	0.0035
AAGUCCUGUGCUACACAUCGUAUGUACCGAAUCGGCCCGGGGCCCGGGGCCCGGGGAAAGUAUUAUGUUACGCCGUUCGGAUCUGCACUU	-0.218
UGCAGCUGCUGGCCGCCUCCUAUGACCUGCACCGCUACUUCUACACGGGUGCCGAGAUCCUGGGCCUCAUCGACGAGAAGCACCGCGAGC	-0.0641
UCCUCAAGUCCUGUGCUACACAUCGUAUGUACCGAAUCGGGGUGGGUGGUGGAAAGUAUUAUGUUACGCCGUUCGGAUCUGCACUUCCAG	-0.133
UAACUUUAGAGGAGGAUCUGAUGGAUAUGGCAGUGGACGUGGGUUUGGGGAUGGCUAUAAUGGGUAUGGAGGAGGACCUGGAGGUGGCAA	-0.0746

Block 3
Target: PABPC1L2, full length, GST fusion (mouse, UniProt A0ABA7IW68)
Technique: RNAcompete
Molecule type: RNA
Sample: in vitro
Concentration: 20 nM
Notes: 7-mer, probes averaged, single round
Reference: mean of 7-mers
Direction: higher = stronger binding
Target sequence (chain): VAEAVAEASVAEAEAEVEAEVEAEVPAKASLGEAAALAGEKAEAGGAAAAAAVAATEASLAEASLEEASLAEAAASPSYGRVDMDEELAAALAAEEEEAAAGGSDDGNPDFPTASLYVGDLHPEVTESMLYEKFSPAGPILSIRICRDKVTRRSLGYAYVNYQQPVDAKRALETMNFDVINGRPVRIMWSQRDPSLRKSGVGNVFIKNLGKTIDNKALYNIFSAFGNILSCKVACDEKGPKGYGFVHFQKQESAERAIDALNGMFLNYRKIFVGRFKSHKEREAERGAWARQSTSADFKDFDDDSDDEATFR
Sequence	7-mer Z-score
UAGAAGC	-0.0246
UCCACAA	-0.0718
UCUCUGC	-0.249
UACUGAA	-0.0699
GGCCACA	-0.153
AGAAUGU	-0.184
AUUCUCA	-0.311
UCAUAUA	-0.0935
GCAUAAC	-0.0428
CUCGUUA	-0.374
AGAUAUC	-0.289
UUUAUCC	-0.282
CCUGGUU	-0.478
UAGAGGU	-0.0917
UUCUCCG	-0.34
AGGUCGG	0.111
AUCAAGG	0.167
AGCUGGG	0.278
ACUCGGC	-0.162
UCAGAGU	-0.251
ACAUAUG	0.0406
AGGCUUA	0.00617
GCGCCAA	0.00617
UCGUGCA	-0.322
GCCCUUC	-0.36

Block 4
Target: RNA binding protein fox-1 homolog 2, RRM domain, GST-SBP tag (RBFOX2, Homo sapiens, UniProt O43251-10, residues 100-194)
Technique: RNA Bind-n-Seq
Molecule type: RNA
Sample: in vitro
Concentration: 365 nM
Notes: natural RNA segment, single round, ends assumed
Reference: no-protein control
Direction: higher = stronger binding
Constant ends, left off below: GGGAGUUCUACAGUCCGACGAUC … UGGAAUUCUCGGGUGCCAA
Target sequence (chain): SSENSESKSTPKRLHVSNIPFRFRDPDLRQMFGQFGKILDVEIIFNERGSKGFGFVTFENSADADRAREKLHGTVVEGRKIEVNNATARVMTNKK
Sequence	RBNS enrichment (R)
UUUUGGUUUUUGGUUUUUUUAUCCUUUUACUCCAAUACUCCCCCUGUCACUUUGCCUGGAGGUGCUUCAAGCCUUUAACAAGGAGCAGAGAAGAAUUGGAGCCAGACUUU	0.288
UGAAAGCCUUAGUUCCCACAGAGGACGGAUCUGUCACUCCUAGGGGCUGGGCAUAUGUCGGCCUCUUGUGCCAAGGCCAGGCAAGCAGCUCCAGGUCCUGACCAGUUUGC	0.343
UCAGUGCUAAUCAUUGUUUUUUCCUUUGUAAAUGUUGAUUCAGAAAAGGAAAGCACAGGCUAAGCAGUUGAAGGUUCCCCACCAUUCAGUGAGAGCAGAACCCCCAUUCC	0.273
UUAGUAACGUCUAAGGCCAUGUUGCCUUUGUCUUUAGAGUAAUUCCUGGCUGUGCCUACCACUCCUGCAUACUGUGCUUAUGUGCGUGCUGCGCUUUGAUGGGGAGGAGG	1.21
AAUGAAUGGUGGAGCCUGCCCUUUUGUGUUCCAAGCUCGGUUGCGAGGAUGACUUACGUGCUCUGAUUUAUAUCAUAAAGCAAGAAGACUGAGCAUUCUUACACUUGAUG	0.676
CUUUAUUGCCUUCCUUGGGGAUAAACCAAUUCCUAUCCUUUUUUAUAUGUGUAAGUAAAGCCUGAAGUGUAGGGGGCCUUUGUUCUUGAAGCAGCCAGGGUCUCCUUGCC	0.527
GUAGAAAGAUCUCAGGAAAGCACCUUUCUCCUUUUCAGGGUGACCGUGCUCUUCACACUCUCUGAGGCCUCAGUCCAUGUCCUAUAUCAGUUUCUCUUUUGUGUGCUUUA	0.238
UACCACUGGCGCCUAUGCGAUCACUUCAUUUUUAGUUUGAGUUGCACCAGAAGCUGCCGUAGAAAGCCAUGCGCUACUGCUUACCUCCUCCACUCCCCCUGCCUGCCCCC	0.982
GCCAGUGACUGAGGAUCCCCUCCAGUCAUGGUUCUGUAUAUUCUUUGAGACAGGUGUUUUCAUCUUCUCUCAGCUCAGUGCUGUUUUGUACAGUCUCUGUGGCUUGGUUG	0.329
UCAUUUUAACGUGUUGUUUAUUCUGUUUCACGACCUACAUACAGUUCUUGUGCAUCAGGAUAUAUCAAGCUGCCUUCAUGGCUAUAGAAUGUAAUGUAAGAAAAAUGUUC	0.343
GUUCUCCGUGGUGGAAUUGACCGAAAGCUCUAUGUUUUCGUUAAUAAAGGGCAACUUAGCCAAGUUUAAGGUCGCGUGCGAUGCAUUCUUCCCUAGCCAAGGGGCAGUCA	0.265
UGGUCCUUCCUGUUCUCCACCCUGGUUUCUUAAGUAGUUGGUUCUUCUCCUUAGUCUUCCUGACUCAACCCGUGGUCUCUGUCCCGCUCCCCCUCUCUGUGGCAGUUUCA	0.602

Block 5
Target: Histone acetyltransferase KAT6A, winged helix 2, GST fusion (KAT6A, Homo sapiens, UniProt Q92794, residues 85-181)
Technique: protein binding microarray
Molecule type: double-stranded DNA, one strand shown
Sample: in vitro
Concentration: not given
Notes: 8-mer, flanks averaged, mean of 2 arrays, mostly near background
Reference: not given
Direction: higher = stronger binding
Target sequence (chain): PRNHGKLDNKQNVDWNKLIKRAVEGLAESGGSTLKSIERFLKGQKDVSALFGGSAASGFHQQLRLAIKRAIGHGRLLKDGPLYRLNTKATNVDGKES
Sequence	E-score
GCTAGCGA	0.0569
AGGCTCAA	-0.044
ACAAAGCC	0.0711
GTCAGGAA	0.0144
CAAATGAA	0.0789
ATATGTCA	-0.0406
CAGTACAG	-0.0645
TTCCGGAA	0.17
CCCGTAGC	0.018
AAACGACC	0.103
ACGCGAGG	-0.0246
GCCGTGAA	0.112
AACGCTTG	0.016
AAGTTCGG	0.101
CCCTACTA	-0.144
GGTCTAAC	-0.053

A few entries again (block 3):
Sequence	7-mer Z-score
UUCUCCG	-0.34
CCUGGUU	-0.478
GCAUAAC	-0.0428
ACAUAUG	0.0406
AGGUCGG	0.111
UCGUGCA	-0.322
